{"data": "Published values of several laboratories", "note": "Lines come from different studies, so protocols differ. ± marks the error that the study gave."}
{"SMILES": "COc1ccc(C2CC(c3ccc(C)cc3)=Nc3ccccc3S2)cc1OC (stereo not drawn)", "test system": "rat, normal, overnight fasted", "setting": "oral, 20 mg/kg, 30 min, oral glucose tolerance test, together with: glucose 3 g/kg oral", "endpoint": "blood glucose", "value": "115 ± 4.61 mg/dL"}
{"SMILES": "Cn1c(=O)c(=O)n(C)c2cc(S(=O)(=O)Nc3ccc(S(=O)(=O)Nc4ncccn4)cc3)ccc21", "assay": "IPGTT", "test system": "HFD/STZ diabetic male albino mice", "setting": "10 mg/kg, 6 h", "endpoint": "blood glucose", "value": "90.3 ± 3.25 mg/dL"}
{"SMILES": "COc1ccc(C2CC(c3ccc(C)cc3)=Nc3ccccc3S2)cc1 (stereo not drawn)", "test system": "Wistar rat, STZ-induced diabetes, serum", "setting": "10 mg/kg, 28 days", "endpoint": "HDL cholesterol", "value": "47.5 ± 2.22 mg/dL"}
{"SMILES": "N#Cc1ccc(-c2cc(=O)c3ccc4[nH]c(C(F)(F)F)nc4c3o2)cc1", "assay": "Morris water maze probe trial", "test system": "5xFAD mice", "setting": "dose not given, 60 s", "how to read": "relative to: vehicle", "endpoint": "time in target quadrant", "value": "increased"}
{"SMILES": "CCOC(=O)Cc1csc(NC(=O)CCN2CCC(O)CC2)n1", "assay": "paw oedema", "test system": "mouse", "setting": "intraperitoneal, 200 µmol/kg", "endpoint": "inhibition in vivo", "value": "59.6%"}
{"SMILES": "C=CC(=O)Nc1cc(Nc2nccc(-n3ccc4nc(OC)ccc43)n2)c(OC)cc1N(C)CCN(C)C", "test system": "BALB/c nude mouse, H1975 xenograft", "setting": "oral, 60 mg/kg, 24 h", "endpoint": "phospho-EGFR", "value": "inhibited"}
{"SMILES": "CC[C@H]1[C@@H](O)[C@@H]2[C@H](CC[C@]3(C)[C@@H]([C@H](C)CCOS(=O)(=O)[O-])CC[C@@H]23)[C@@]2(C)CC[C@@H](O)C[C@@H]12.[Na+]", "test system": "ob/ob NASH mouse model", "setting": "oral, 3 mg/kg once daily, 8 weeks", "how to read": "relative to: body weight", "endpoint": "liver weight", "value": "9.4 ± 0.2%"}
{"SMILES": "O=C(CN1CCC(O)CC1)Nc1nc(-c2ccccc2)cs1", "assay": "paw oedema", "test system": "mouse", "setting": "intraperitoneal, 200 µmol/kg", "endpoint": "inhibition in vivo", "value": "62.6%"}
{"SMILES": "N[C@@H](CC(=O)O)C(=O)N1CCC[C@H]1C(=O)NCC(=O)NCC(=O)O", "assay": "diketopiperazine formation, transition state theory", "test system": "1-propanol", "setting": "concentration not given, 70, 80, 90 °C, 0.5% acetic acid", "endpoint": "enthalpy of activation", "value": "69 ± 1 kJ/mol"}
{"SMILES": "CCOc1ccc(C[C@@H]2NC(=O)[C@@H](N)CSSC[C@@H](C(=O)N3CCC[C@H]3C(=O)N[C@@H](CC(C)C)C(=O)NCC(N)=O)NC(=O)[C@H](CC(N)=O)NC(=O)[C@H](CCC(N)=O)NC(=O)[C@H]([C@@H](C)CC)NC2=O)cc1", "test system": "Rhinella marina, toad urinary bladder", "setting": "concentration not given, together with: theophylline", "how to read": "relative to: theophylline alone", "endpoint": "increase in maximal response", "value": "22%"}
{"SMILES": "CCCC[C@H](NC(=O)[C@H](C)NC(=O)[C@H](CO)NC(=O)[C@H](CC(C)C)NC(=O)[C@H](CCCCN)NC(=O)[C@]1(C)CCCC=CCCCCCC[C@@](C)(NC(=O)[C@H](CCC(=O)O)NC(=O)[C@H](CC(C)C)NC(=O)[C@]2(C)CCCC=CCCCCCC[C@@](C)(NC(=O)[C@H](CC(C)C)NC(=O)[C@H](CS)NC(=O)[C@H](CCC(N)=O)NC(=O)[C@H](C)NC(=O)[C@H](CCCNC(=N)N)NC(C)=O)C(=O)N[C@@H](CCC(N)=O)C(=O)N[C@@H](CCCNC(=N)N)C(=O)N[C@@H](CCC(=O)O)C(=O)N[C@@H](CCCC)C(=O)N[C@@H](C(C)C)C(=O)N[C@@H](CCC(N)=O)C(=O)N2)C(=O)N[C@@H](CCC(N)=O)C(=O)N[C@@H](CC(C)C)C(=O)N[C@@H](C(C)C)C(=O)N[C@@H](CC(C)C)C(=O)N[C@@H](CCC(=O)O)C(=O)N[C@@H](CCCCN)C(=O)N1)C(=O)N[C@@H](CCC(N)=O)C(=O)N[C@@H](C)C(=O)N[C@@H](Cc1c[nH]cn1)C(N)=O", "assay": "Treg-mediated suppression, flow cytometry", "test system": "Treg and Tcon cells, mouse", "setting": "dose not given, 3 d, Treg:Tcon 1:1", "endpoint": "Tcon cell proliferation", "value": "79.1%"}
{"SMILES": "O=C(O)CNC(=O)CNC(=O)[C@@H]1CCCN1C(=O)[C@@H]1CCCN1", "assay": "diketopiperazine formation, transition state theory", "test system": "1-propanol", "setting": "70, 80, 90 °C, 0.5% acetic acid", "endpoint": "ΔS‡ at 298.15 K", "value": "-69 ± 1 J/(mol·K)"}
{"SMILES": "Cc1ccc(C(=O)Nc2ccc(CP(=O)(O)O)cc2CP(=O)(O)O)cc1NC(=O)c1cccc(NC(=O)Nc2cccc(C(=O)Nc3cc(C(=O)Nc4ccc(CP(=O)(O)O)cc4CP(=O)(O)O)ccc3C)c2)c1", "test system": "human plasma", "setting": "423 µM", "endpoint": "PT", "value": "16.9 ± 3 s"}
{"SMILES": "COc1ccc2c(c1)c(CC(=O)OCC(=O)c1ccccc1)c(C)n2C(=O)c1ccc(Cl)cc1", "assay": "hot plate test", "test system": "BALB/c mice", "setting": "50 mg/kg, 0 min", "endpoint": "latency of nociceptive response", "value": "9.06 ± 0.88 s"}
{"SMILES": "CC(C)n1cnc(-c2ccc(F)cc2)c1-c1ncc(C(=O)Nc2ccc(N3CCN(C)CC3)cc2)[nH]1", "test system": "IPF patients", "setting": "30 mg twice daily, 12 weeks, mean", "endpoint": "FVC change from baseline", "value": "19.7 mL"}
{"SMILES": "CC(=O)[O-].O.O.O.O.[Ni+2].[O-]c1ccc(Br)cc1C=NCCN1CCOCC1", "assay": "DPPH radical scavenging", "setting": "240 µM", "endpoint": "inhibition", "value": "55.6%"}
{"SMILES": "O=C1CCN(Cc2ccccc2)CC1C(C[N+](=O)[O-])c1ccccc1 (stereo not drawn)", "assay": "tail immersion test", "test system": "BALB/c mice", "setting": "ip, 25 mg/kg, 1 h", "endpoint": "tail flick response", "value": "35.1%"}
{"SMILES": "Cc1cc2c(cc1C1(c3ncc(C(=O)O)cn3)CC1)C(C)(C)CCC2(C)C", "assay": "RNA sequencing, refers to: Lyve1", "test system": "rat, brain", "setting": "dose not given, 24 h", "how to read": "relative to: vehicle", "endpoint": "log2 fold change", "value": -0.097}
{"SMILES": "CCCCCCOC(=O)Cc1c(C)n(C(=O)c2ccc(Cl)cc2)c2ccc(OC)cc12", "assay": "hot plate test", "test system": "BALB/c mice", "setting": "100 mg/kg, 90 min", "endpoint": "latency of nociceptive response", "value": "16.4 ± 0.68 s"}
{"SMILES": "CSc1nn(-c2ccccc2)c(NC(=O)/C(C#N)=C(/Nc2ccc(C)cc2)Nc2c(C)n(C)n(-c3ccccc3)c2=O)c1C#N", "assay": "real-time PCR, refers to: LOX", "test system": "mouse, formalin test, paw tissue", "setting": "dose not given, unit not given", "how to read": "relative to: control", "endpoint": "mRNA level", "value": "1.05 ± 0.19"}
{"SMILES": "NC(=O)C[C@H](N)C(=O)N1CCC[C@H]1C(=O)NCC(=O)NCC(=O)O", "assay": "diketopiperazine formation, transition state theory", "test system": "1-propanol", "setting": "70, 80, 90 °C, 0.5% acetic acid", "endpoint": "ΔS‡ at 298.15 K", "value": "-64 ± 2 J/(mol·K)"}
{"SMILES": "CC=CC(CC(=O)O)c1ccc(OCc2ccc(-c3cc(OC)ccc3F)cc2)cc1 (stereo not drawn)", "assay": "refers to: total GLP-1", "test system": "colonic crypt cultures, Gpr40 knockout, mouse, ex vivo", "setting": "1 µM, 2 h", "how to read": "relative to: vehicle", "endpoint": "GLP-1 release", "value": "1.4 ± 0.14 fold change"}
{"SMILES": "C=C(c1ccc(C(=O)O)c(F)c1)c1cc2c(cc1C)C(C)(C)C=CC2(C)C", "assay": "RNA sequencing, refers to: Sfrp5", "test system": "rat, brain", "setting": "dose not given, 24 h", "how to read": "relative to: vehicle", "endpoint": "log2 fold change", "value": 0.6}
{"SMILES": "Oc1ccc2nc1CNCCNCCNC2", "assay": "pH-potentiometric titration", "setting": "298 K, I 0.15 M NaCl, together with: Zn2+", "endpoint": "log beta ML", "value": 16.8}
{"SMILES": "C=CCC1C(=O)C=C(OC)C2(OC)C(C)C(c3ccc4c(c3)OCO4)OC12 (single isomer, unassigned; (-))", "assay": "refers to: IL-6, IL-1β, iNOS, COX-2", "test system": "mouse, bile duct ligation, liver", "setting": "dose not given", "endpoint": "mRNA level", "value": "decreased"}
{"SMILES": "C=C(c1ncc(C(=O)O)cn1)c1cc2c(cc1C)C(C)(C)CCC2(C)C", "assay": "RNA sequencing, refers to: Lrrc4c mRNA", "test system": "rat, brain", "setting": "dose not given, 24 h, single dose", "how to read": "relative to: vehicle", "endpoint": "log2 fold change", "value": 0.71}
{"SMILES": "CCCCCCCCCCCCCCCC(=O)OCC(CSC[C@H](N)C(=O)N[C@@H](CO)C(=O)N[C@@H](CCCCN)C(=O)N[C@@H](CCCCN)C(=O)N[C@@H](CCCCN)C(=O)N[C@@H](CCCCN)C(=O)NCCCCCC(=O)N[C@@H](CCCCN)C(=O)N[C@@H](CC(C)C)C(=O)N[C@H](C(=O)N[C@@H](Cc1ccccc1)C(=O)N[C@@H](Cc1ccccc1)C(=O)N[C@@H](Cc1ccc2ccccc2c1)C(=O)O)C(C)C)OC(=O)CCCCCCCCCCCCCCC (stereo partly drawn)", "assay": "refers to: thioflavin S plaques", "test system": "APP/PS1 mouse, 13 months", "setting": "intracortical, 100 µM, 300 nL, 5 d", "how to read": "relative to: injected over adjacent side", "endpoint": "plaque load ratio", "value": "0.57 ± 0.1"}
{"SMILES": "NCC(=O)N1CCC[C@H]1C(=O)NCC(=O)NCC(=O)O", "assay": "diketopiperazine formation, transition state theory", "test system": "1-propanol", "setting": "concentration not given, 70, 80, 90 °C, 0.5% acetic acid", "endpoint": "enthalpy of activation", "value": "76 ± 8 kJ/mol"}
{"SMILES": "O=c1[nH]c(N2CCC3(CC2)CN(CCO)c2cc(F)cc(F)c23)nc2c1CCCC2", "test system": "NOD-SCID mouse, xenograft, tumour nuclear extract", "setting": "oral or intraperitoneal, dose not given, 4 h after last dose", "endpoint": "active β-catenin level", "value": "decreased"}
{"SMILES": "C[C@H](NC(=O)COC(=O)[C@H](C)NC(=O)CO)C(=O)O", "test system": "water", "setting": "pH 2, 25 °C", "endpoint": "depolymerization rate constant", "value": "0.001 h⁻¹"}
{"note": "Repeated from above:"}
{"SMILES": "CC=CC(CC(=O)O)c1ccc(OCc2ccc(-c3cc(OC)ccc3F)cc2)cc1 (stereo not drawn)", "assay": "refers to: total GLP-1", "test system": "colonic crypt cultures, Gpr40 knockout, mouse, ex vivo", "setting": "1 µM, 2 h", "how to read": "relative to: vehicle", "endpoint": "GLP-1 release", "value": "1.4 ± 0.14 fold change"}
{"SMILES": "C=C(c1ccc(C(=O)O)c(F)c1)c1cc2c(cc1C)C(C)(C)C=CC2(C)C", "assay": "RNA sequencing, refers to: Sfrp5", "test system": "rat, brain", "setting": "dose not given, 24 h", "how to read": "relative to: vehicle", "endpoint": "log2 fold change", "value": 0.6}
{"SMILES": "Oc1ccc2nc1CNCCNCCNC2", "assay": "pH-potentiometric titration", "setting": "298 K, I 0.15 M NaCl, together with: Zn2+", "endpoint": "log beta ML", "value": 16.8}
{"SMILES": "C=CCC1C(=O)C=C(OC)C2(OC)C(C)C(c3ccc4c(c3)OCO4)OC12 (single isomer, unassigned; (-))", "assay": "refers to: IL-6, IL-1β, iNOS, COX-2", "test system": "mouse, bile duct ligation, liver", "setting": "dose not given", "endpoint": "mRNA level", "value": "decreased"}
